{"data": "Earlier results as cited in several papers", "note": "Compare with care: the assays were run in different laboratories. Values joined by “and” are separate records of one study, mostly repeats; a detail may differ. Numbers after ± are the reported error."}
{"SMILES": "COc1cc(/C=C/C(=O)N2CCC(Cc3ccccc3)CC2)ccc1OCCCCN(N1CCCc2ccccc21)N1CCCc2ccccc21", "target or system": "MAO-B", "measurement": "IC50", "result": "8600 nM"}
{"SMILES": "O=c1cc(Cc2ccc(-c3ccccc3)cc2)c2cccnc2n1O", "target or system": "HIV-1 integrase", "test": "strand transfer, inhibitor", "measurement": "IC50", "result": "2400 nM"}
{"SMILES": "CC1=NOC(=O)/C1=C\\c1ccc(-c2ccccc2)o1", "target or system": "IspE (Escherichia coli)", "measurement": "IC50", "result": "5500 nM"}
{"SMILES": "CNC(=O)Oc1cccc(CN(C)CCCCCOC(=O)/C=C/c2ccc(O)c(OC)c2)c1", "target or system": "AChE", "measurement": "IC50", "result": "19.7 nM"}
{"SMILES": "CC(C)C[C@H](NC(=O)[C@H](C)NC(=O)[C@H](CCC(=O)O)NC(=O)[C@H](Cc1c[nH]c2ccccc12)NC(=O)CNC(=O)[C@H](CCCNC(=N)N)NC(=O)[C@H](CCCNC(=N)N)NC(=O)CN)C(=O)N[C@@H](CCCCN)C(=O)N[C@@H](Cc1ccc(O)cc1)C(=O)O", "target or system": "Mamu-B*03 MHC class I", "test": "peptide binding, competitor, competitive binding", "measurement": "IC50", "result": "6500 nM"}
{"SMILES": "CC(=O)SCC(=O)NCCCCCC(=O)Nc1ccccc1", "target or system": "total HDAC", "system": "HeLa nuclear extract", "measurement": "IC50", "result": "22000 nM and 20100 nM"}
{"SMILES": "O=C1[C@@H]2CCCN2[C@H](c2ccc([N+](=O)[O-])cc2)N1c1ccc([N+](=O)[O-])cc1", "target or system": "dengue virus 2 NS2B-NS3 protease", "test": "inhibitor", "measurement": "IC50", "result": "inactive"}
{"SMILES": "CC[C@H](C)[C@H](NC(=O)[C@H](Cc1c[nH]c2ccccc12)NC(=O)[C@H](CCCNC(=N)N)NC(=O)[C@@H](N)CCCNC(=N)N)C(=O)N[C@@H](CCC(N)=O)C(=O)N[C@@H](CC(C)C)C(=O)NCC(=O)N[C@@H](CC(C)C)C(=O)N[C@@H](CCC(N)=O)C(=O)N[C@@H](CCCCN)C(=O)O", "target or system": "Mamu-B*08 MHC class I", "test": "peptide binding, competitor, competitive binding", "measurement": "IC50", "result": "14 nM"}
{"SMILES": "O=C[C@H](C[C@@H]1CCNC1=O)NC(=O)[C@H](Cc1ccccc1)NC(=O)/C=C/c1ccc(Cl)cc1F", "target or system": "enterovirus 71 3C protease", "test": "enzyme activity, inhibitor", "measurement": "IC50", "result": "< 500 nM"}
{"SMILES": "C#CCN(C)Cc1cc2cc(OCCCN3CCCCC3)ccc2n1C", "target or system": "butyrylcholinesterase, human", "test": "inhibitor", "measurement": "IC50", "result": "1690 nM"}
{"SMILES": "CC[C@H](C)[C@H](N)C(=O)N[C@@H](CCCNC(=N)N)C(=O)N[C@@H](CC(C)C)C(=O)N[C@@H](CCCNC(=N)N)C(=O)N1CCC[C@H]1C(=O)NCC(=O)NCC(=O)N[C@@H](CCCCN)C(=O)N[C@@H](CCCCN)C(=O)O", "target or system": "Mamu-B*08 MHC class I", "test": "peptide binding, competitor, competitive binding", "measurement": "IC50", "result": "2200 nM"}
{"SMILES": "C#CCN(C)[C@H](C)c1ccc(/C=[N+](\\[O-])C(C)(C)C)c(OC(=O)N(C)CC)c1", "target or system": "monoamine oxidase B", "test": "inhibitor", "setting": "racemate", "measurement": "IC50", "result": "1050 ± 160 nM"}
{"SMILES": "CCn1c(CC(=O)N2CCN(c3ccccc3)CC2)nc2sc3c(c2c1=O)CCCC3", "target or system": "AChE", "measurement": "IC50", "result": "70 nM"}
{"SMILES": "Cc1cc(-n2c(=O)ccc3cnc4[nH]ccc4c32)ccc1F", "target or system": "STK16", "test": "enzyme activity", "measurement": "IC50", "result": "295 nM"}
{"SMILES": "O=C(OCC[18F])C1C2CCC(CC1c1ccc(/C=C\\I)cc1)N2 (stereo not shown)", "target or system": "SERT", "test": "HRRT PET", "system": "awake rhesus monkey, putamen", "measurement": "time to peak uptake", "result": "85 min"}
{"SMILES": "O=C1C[C@@H]2COc3ccc(OCCN4CCCC4)cc3C2=NN1c1ccccc1", "target or system": "butyrylcholinesterase, horse", "test": "enzyme activity, inhibitor", "measurement": "IC50", "result": "8300 nM"}
{"SMILES": "Nc1ccc2oc(CN3CCN(c4ccc(Br)cc4)CC3)nc2c1", "target or system": "Electrophorus electricus acetylcholinesterase", "test": "enzyme activity, inhibitor", "measurement": "IC50", "result": "52 ± 10 nM"}
{"SMILES": "CN[C@H](CC(C)C)C(=O)N[C@H]1C(=O)N[C@@H](CC(N)=O)C(=O)N[C@H]2C(=O)N[C@H]3C(=O)N[C@H](C(=O)N[C@H](C(=O)O)c4cc(O)cc(O)c4-c4cc3ccc4O)[C@H](O)c3ccc(c(Cl)c3)Oc3cc2cc(c3O[C@@H]2O[C@H](CO)[C@@H](O)[C@H](O)[C@H]2O[C@H]2C[C@](C)(NCc3ccc(-c4ccc(Cl)cc4)cc3)[C@H](O)[C@H](C)O2)Oc2ccc(cc2Cl)[C@H]1O", "system": "mouse, plasma", "setting": "intravenous, 75 mg/kg (MTD)", "measurement": "Cmax", "result": "125 µg/mL"}
{"SMILES": "C[C@H]1CC[C@@H]2[C@@H](C)[C@H]3[C@H](C[C@H]4[C@@H]5CC=C6C[C@@H](O)CC[C@]6(C)[C@H]5CC[C@]34C)N2C1", "target or system": "butyrylcholinesterase", "test": "enzyme activity, inhibitor", "measurement": "IC50", "result": "16.8 nM"}
{"note": "Repeated from above:"}
{"SMILES": "O=C(OCC[18F])C1C2CCC(CC1c1ccc(/C=C\\I)cc1)N2 (stereo not shown)", "target or system": "SERT", "test": "HRRT PET", "system": "awake rhesus monkey, putamen", "measurement": "time to peak uptake", "result": "85 min"}
{"SMILES": "O=C1C[C@@H]2COc3ccc(OCCN4CCCC4)cc3C2=NN1c1ccccc1", "target or system": "butyrylcholinesterase, horse", "test": "enzyme activity, inhibitor", "measurement": "IC50", "result": "8300 nM"}
{"SMILES": "Nc1ccc2oc(CN3CCN(c4ccc(Br)cc4)CC3)nc2c1", "target or system": "Electrophorus electricus acetylcholinesterase", "test": "enzyme activity, inhibitor", "measurement": "IC50", "result": "52 ± 10 nM"}
